Measurements collected from several papers.
Every numbered part comes from another study and shows a few of its results, in no order. Substitutions count along the parent as printed.
Chain of UniProt O75116 (whole entry, looked up): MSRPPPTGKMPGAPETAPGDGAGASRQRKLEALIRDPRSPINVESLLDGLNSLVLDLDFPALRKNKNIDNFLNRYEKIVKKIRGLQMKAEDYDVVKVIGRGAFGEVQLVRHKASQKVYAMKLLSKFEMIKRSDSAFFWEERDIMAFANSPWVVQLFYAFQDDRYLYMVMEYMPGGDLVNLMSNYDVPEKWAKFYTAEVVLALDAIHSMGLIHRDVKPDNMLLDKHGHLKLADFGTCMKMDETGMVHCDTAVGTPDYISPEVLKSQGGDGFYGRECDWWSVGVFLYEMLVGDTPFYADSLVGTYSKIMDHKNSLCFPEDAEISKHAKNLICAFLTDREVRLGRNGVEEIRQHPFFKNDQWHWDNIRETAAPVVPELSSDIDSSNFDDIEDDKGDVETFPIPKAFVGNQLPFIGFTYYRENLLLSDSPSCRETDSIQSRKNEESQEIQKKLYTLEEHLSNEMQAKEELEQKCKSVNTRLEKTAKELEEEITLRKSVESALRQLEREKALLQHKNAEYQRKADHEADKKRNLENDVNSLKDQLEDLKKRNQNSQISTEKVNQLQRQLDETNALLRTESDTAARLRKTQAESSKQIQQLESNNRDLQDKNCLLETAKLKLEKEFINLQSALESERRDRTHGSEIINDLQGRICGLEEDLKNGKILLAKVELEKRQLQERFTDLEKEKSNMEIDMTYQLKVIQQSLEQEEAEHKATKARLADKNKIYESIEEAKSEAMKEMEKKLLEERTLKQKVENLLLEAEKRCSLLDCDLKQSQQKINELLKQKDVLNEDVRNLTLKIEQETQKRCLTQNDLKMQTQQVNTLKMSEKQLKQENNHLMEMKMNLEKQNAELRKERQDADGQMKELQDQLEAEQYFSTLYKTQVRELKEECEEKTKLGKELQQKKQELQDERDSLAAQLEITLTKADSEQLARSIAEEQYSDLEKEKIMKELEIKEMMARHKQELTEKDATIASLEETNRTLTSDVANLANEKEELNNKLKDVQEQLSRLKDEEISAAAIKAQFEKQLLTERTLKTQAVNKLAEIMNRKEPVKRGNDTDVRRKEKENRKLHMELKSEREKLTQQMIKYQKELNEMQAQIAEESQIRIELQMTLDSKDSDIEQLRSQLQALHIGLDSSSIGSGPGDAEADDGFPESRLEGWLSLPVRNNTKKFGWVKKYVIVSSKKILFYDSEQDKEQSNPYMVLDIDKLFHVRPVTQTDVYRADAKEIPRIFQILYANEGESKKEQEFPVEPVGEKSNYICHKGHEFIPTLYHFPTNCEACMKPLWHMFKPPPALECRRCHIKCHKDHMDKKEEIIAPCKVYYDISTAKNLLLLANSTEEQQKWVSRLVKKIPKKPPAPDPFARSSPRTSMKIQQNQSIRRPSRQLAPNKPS

Series 1 — target: MAFG, bZIP domain (human); technique: DHFR protein complementation; matrix: yeast; reference: wild-type JUN-FOS pair; direction: higher = stronger binding
Notes: single substitutions, most at no-binding floor
Starting sequence: JUN, bZIP domain (human); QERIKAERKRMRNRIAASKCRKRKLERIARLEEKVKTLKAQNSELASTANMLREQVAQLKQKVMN; partner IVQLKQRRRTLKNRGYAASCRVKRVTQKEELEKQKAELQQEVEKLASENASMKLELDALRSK
Substitution | binding fitness
A40G | -1.4 natural log
L52M | -1.44 natural log
E33R | -1.45 natural log
Q55I | -1.31 natural log
K36C | -1.5 natural log
A29P | -1.52 natural log
M51Q | -1.52 natural log
T37S | -1.29 natural log

Series 2 — target: CCND3, cyclin fold, Cln2 fusion (human); technique: yeast growth competition, sequencing; matrix: yeast; notes: weak parent motif; reference: not given; direction: higher = stronger binding
Starting sequence: E2F1 docking peptide (human); PPVKRRLDFETDH
Substitution | normalised enrichment score
L7F | 0.178
P2C | 0.412
L7G | -0.0919
R5D | 0.152
V3T | 0.543
E10D | 0.896
T11L | 0.247
D8N | 0.396

Series 3 — technique: protein-binding microarray; molecule type: double-stranded DNA, one strand shown; matrix: in vitro; concentration: not given; direction: higher = stronger binding
Target: Myc proto-oncogene protein, bHLH-zipper, MAX partner unstated (MYC, Homo sapiens, UniProt P01106, residues 368-449)
Chain of UniProt P01106 (368-449, looked up): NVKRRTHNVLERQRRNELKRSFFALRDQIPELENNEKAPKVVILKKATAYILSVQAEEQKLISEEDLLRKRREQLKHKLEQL
Notes: k-mer, scored over probes, only values ≥0.25
Strand | E-score
CGTCACGC | 0.295
TCGCCACA | 0.312
CCCATGCG | 0.444
AACGTGGC | 0.441
GTGGACAC | 0.28
ACACCGTG | 0.333
CCCGTGTC | 0.29
ACGCCTCA | 0.256

Further values, each from its own experiment
Structure (SMILES) | target | effect on | mode | concentration | reference | quantity | result
CN(C)c1ccc(C=C2C(=O)Nc3ccccc32)cc1 | Rho-associated protein kinase 2 (ROCK2, Homo sapiens, UniProt O75116) | enzyme activity | inhibitor | 0.5 µM | control | remaining activity | 95.2%

For quick reference, copied from above (further values, each from its own experiment):
Structure (SMILES) | target | effect on | mode | concentration | reference | quantity | result
CN(C)c1ccc(C=C2C(=O)Nc3ccccc32)cc1 | Rho-associated protein kinase 2 (ROCK2, Homo sapiens, UniProt O75116) | enzyme activity | inhibitor | 0.5 µM | control | remaining activity | 95.2%
